Published values from different studies.
A part holds a random share of what one study measured.

Sample 1
Target: Interferon regulatory factor 3, full length, phosphomimetic (IRF3, Homo sapiens, UniProt Q14653, residues 1-427, S386D/S396D/S398D/S402D/T404D/S405D)
Method: protein-binding microarray
Molecule type: double-stranded DNA, one strand shown
Sample: in vitro
Concentration: 2540 nM top
Setting: 60-bp whole probe
Added: salmon DNA 0.4 mg/ml
Reference: random background probes
Direction: higher = stronger binding
Constant ends, left off below: GCCTAGCAC … GTCTTGATTCGCTTGACGCTGCTG
Residues (chain): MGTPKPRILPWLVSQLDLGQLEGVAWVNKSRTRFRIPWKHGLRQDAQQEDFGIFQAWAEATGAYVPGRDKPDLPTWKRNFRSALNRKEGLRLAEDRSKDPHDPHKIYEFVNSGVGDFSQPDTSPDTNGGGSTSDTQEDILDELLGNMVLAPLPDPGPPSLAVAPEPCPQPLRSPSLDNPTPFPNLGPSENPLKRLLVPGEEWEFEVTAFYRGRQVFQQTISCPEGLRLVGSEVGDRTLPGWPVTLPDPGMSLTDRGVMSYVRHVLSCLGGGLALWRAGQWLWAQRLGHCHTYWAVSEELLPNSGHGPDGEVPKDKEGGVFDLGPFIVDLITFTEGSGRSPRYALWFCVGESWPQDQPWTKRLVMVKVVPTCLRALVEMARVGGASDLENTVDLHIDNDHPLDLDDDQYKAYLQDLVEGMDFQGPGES
`GACGGACTGCTTATCCTGCCGTGCTAG`: “fitted relative affinity” -0.483 z-score.
For `TCATCTTTCTGTCAGTTACTGTGCTAG`, “fitted relative affinity” read 1.51 z-score.
`TTAGATATTAGTTTCGATTAGTGCTAG`: “fitted relative affinity” 4.39 z-score.
For `TCAAGAAAGTGAAATACCACTGTGCTA`, “fitted relative affinity” read -0.407 z-score.
For `GACGAACTGGGGACTGGAGAGGTGCTA`, “fitted relative affinity” read -0.735 z-score.
`CTTGTTCTTAGCTTGGGTCTGTGCTAG`: “fitted relative affinity” 0.309 z-score.
For `GGCGGTTTCGACACTGGGGACGTGCTA`, “fitted relative affinity” read 3.06 z-score.
`TTAGGCCTGGGTTTCGGTTAGTGCTAG`: “fitted relative affinity” 2.7 z-score.
Under “fitted relative affinity”, `TCATTCCTGAAATCTCTTACTGTGCTA` is recorded as 0.849 z-score.
For `TTAGGACTGGGGTTTCAGTTAGTGCTA`, “fitted relative affinity” read -0.0791 z-score.
`CACCCCGCCCCTCCTTGGCCGTGCTAG` — result for “fitted relative affinity”: -0.235 z-score.
For `TTAGGTCTCGGCATCGGTTAGTGCTAG`, “fitted relative affinity” read -0.556 z-score.
`GACGGACCGGGACTGGGGACGTGCTAG` — result for “fitted relative affinity”: -0.712 z-score.
For `GACGGTTTGGGTTTCGGGACGTGCTAG`, “fitted relative affinity” read 2.21 z-score.
`GACGGTTTCGGGTTTCGGGTCGTGCTA` — result for “fitted relative affinity”: 6.06 z-score.
`GACGGTTTCCTTATACTGACGTGCTAG`: “fitted relative affinity” 6.94 z-score.
For `AGCAGAAAGTGAAATACCCTCGTGCTA`, “fitted relative affinity” read -0.368 z-score.
`TTAGGCTTCCTTATCCTTTAGTGCTAG` — result for “fitted relative affinity”: 0.947 z-score.
Under “fitted relative affinity”, `GACGGTTTCCTACTTCTGACGTGCTAG` is recorded as 6.38 z-score.

Sample 2
Target: RNA binding protein fox-1 homolog 2, RRM domain, GST-SBP tag (RBFOX2, Homo sapiens, UniProt O43251-10, residues 100-194)
Method: RNA Bind-n-Seq
Molecule type: RNA
Sample: in vitro
Concentration: 365 nM
Setting: natural RNA segment, single round, ends assumed
Reference: no-protein control
Direction: higher = stronger binding
Residues (chain): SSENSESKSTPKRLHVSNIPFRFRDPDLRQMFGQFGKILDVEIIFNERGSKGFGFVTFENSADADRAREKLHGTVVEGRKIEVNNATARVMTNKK
`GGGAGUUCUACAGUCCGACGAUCGCUGCCACCUGGCAUUUAGUUUAGUGCGGCCAGUGACUGCUUCAAGAGACUUCUGACCUUGCUUCCCAACAGCUAAAGGGCUAACUGUCUUUAUGGAAGGCACUUGUUACUGGAAUUCUCGGGUGCCAA`: “RBNS enrichment (R)” 0.367.
`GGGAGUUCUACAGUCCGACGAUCUUUCAUGUAGAGGAAGGUUAUCCUGUAGCAUAAUGUAUGCACACGGUCAUCUAGUACCUGAUUGGAUAGCUUACAUAUUUAUUGGAUGCUUUGAACAGCUGUAUAUUAGUUGGAAUUCUCGGGUGCCAA`: “RBNS enrichment (R)” 0.735.
Under “RBNS enrichment (R)”, `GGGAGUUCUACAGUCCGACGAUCUCCAGUGUCUUCCACGGAGCCUCUGGGGCUCCUCCCUCACCUGGCAGCCCCUCCAGCUGCUGGUGAUCUCACCCCUGGGACAUUUUUCCAAUAAAGGUUCUGGACAAACUUGGAAUUCUCGGGUGCCAA` is recorded as 0.315.
`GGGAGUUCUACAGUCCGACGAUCAUUUAUUGUAAGUUUUUAAAUGUAUAAAUUGUCUUAUAUUUCUUAACCUCUUUUAUAAAAAUUUUCCUAGAAGGUUUAUACUGCCUUCUUGCUUUAAAGCAAUUGGUCUAUGGAAUUCUCGGGUGCCAA` — result for “RBNS enrichment (R)”: 0.756.
For `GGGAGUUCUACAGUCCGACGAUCAUGAGAAGAUAUAUUAAAUGUAGUCAUAGGGGACUGAGGAGCAAGGGUGGCCUUGAAGAGGCCAAAGGAAUGUCCAUUUGCUGAGUUUCCCUUCCUUAUGUCUCCAGUCUUGGAAUUCUCGGGUGCCAA`, “RBNS enrichment (R)” read 0.861.
`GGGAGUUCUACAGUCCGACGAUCUCUGUAUUAUCAGAUCACAAAGGUGGAAUGUUACUAUUUUAUCAGCAAGAUAUUAAAAUGUAUUUCUAAAUCCUCCUUGGUUUCAAUCAUGAAUAAACUUAUUAGCAAUUUGGAAUUCUCGGGUGCCAA`: “RBNS enrichment (R)” 0.426.
Under “RBNS enrichment (R)”, `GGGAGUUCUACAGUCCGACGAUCUGUUUGUUCAAAGGACCAGUUUUCCUAGGCCAAAGAAGUCUCUUCCCCAUGUUAGUCCUAUGCCUUGAAAUAUCAUGCACCAUGACCCACAGCCAUCUGGUUAUGUCUUAUGGAAUUCUCGGGUGCCAA` is recorded as 1.12.
For `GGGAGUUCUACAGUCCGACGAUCCAUUCAACAAGUAUUUGCUAAACACUAACUUAAGCUAAUGCUAGGGUAGUGACUGAGAUGUAAAAAUAGAUUUUAGAAUUAAAACAAAAUCCAAGUCCUCACACCCCUGUUGGAAUUCUCGGGUGCCAA`, “RBNS enrichment (R)” read 0.377.

Sample 3
Target: Fragile X messenger ribonucleoprotein 1, C-terminal low-complexity region (Fmr1, Mus musculus, UniProt P35922)
Method: RNA Bind-n-Seq
Molecule type: RNA
Sample: in vitro
Concentration: 200 nM
Setting: whole 134-nt RNA, ends assumed
Added: 150 mM LiCl
Reference: input library
Direction: higher = stronger binding
Each molecule: 7-deaza-guanosine replaces G
`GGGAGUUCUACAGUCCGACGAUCCCUGUGCUACACAUCGUAUGUACCGAAUCGGGGAGGGGUUUUUUUGGGGAAAAAAAGGGGAAAGUAUUAUGUUACGCCGUUCGGAUCUGCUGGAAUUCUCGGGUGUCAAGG` gave a log2 enrichment of -1.25.
`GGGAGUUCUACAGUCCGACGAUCCACAGACAACACGCACCCACACAGACACAGAGAAAAGGGGUUGGGAUGGGGACAGGGUGCACAGCAGGGCGGGGUAGGACCCCAGCCCCUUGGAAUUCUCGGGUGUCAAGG` has a log2 enrichment of 0.454.
`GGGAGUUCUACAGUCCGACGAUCUCCUCAAGUCCUGUGCUACACAUCGUAUGUACCGAAUCGGAAAGGAGGUGGAAAGUAUUAUGUUACGCCGUUCGGAUCUGCACUUCCAGCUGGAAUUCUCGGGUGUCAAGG` has a log2 enrichment of -2.02.
For `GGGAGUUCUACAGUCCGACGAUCCCUGUGCUACACAUCGUAUGUACCGAAUCGGAAAAAAAGGGAAAAAAAGGAAAAAAAGGGGAAAGUAUUAUGUUACGCCGUUCGGAUCUGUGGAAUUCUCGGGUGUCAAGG`, the log2 enrichment was -0.226.
`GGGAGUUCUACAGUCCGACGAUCUGGCCCUGGUGGCAUGCGGGGAGGAAGAGGUGGCCUCAUGGAUCGUGGUGGUCCCGGUGGGAUGUUCAGAGGUGGCCGUGGUGGAGACAGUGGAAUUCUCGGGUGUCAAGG` gave a log2 enrichment of -0.213.
For `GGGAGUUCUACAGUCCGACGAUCUGUGCUACACAUCGUAUGUACCGAAUCGGGGAAAAAAAGGGGUUUUUGGGGAAAAAAAGGGGAAAGUAUUAUGUUACGCCGUUCGGAUCUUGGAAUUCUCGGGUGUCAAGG`, the log2 enrichment was -0.0547.
With `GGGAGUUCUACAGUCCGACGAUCACCAUGCAGGUGGGCAUCUUUGGGAAGUGGGGCAAGGGGGGGAUAGGGAGGGGGGUAACACAAAGGGAACAGGUGGUCCCAGGUCGUUUCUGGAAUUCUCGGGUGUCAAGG` the log2 enrichment was 1.57.
With `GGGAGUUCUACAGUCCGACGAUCCUGUGCUACACAUCGUAUGUACCGAAUCGGGGAAAGGGGUUUUUUUGGGGUUUUUUUGGGGAAAGUAUUAUGUUACGCCGUUCGGAUCUGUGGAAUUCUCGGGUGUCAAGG` the log2 enrichment was -0.306.

Sample 4
Target: Prothrombin, mature alpha-thrombin (F2, Homo sapiens, UniProt P00734)
Method: aptamer microarray, sandwich
Molecule type: DNA with 2'F-ANA
Sample: in vitro
Concentration: 200 nM
Setting: whole 15-mer aptamer, many near background
Added: Cy3 exosite-II aptamer, 400 nM
Direction: higher = stronger binding
Strand: GGTTGGTGTGGTTGG
Under “mean fluorescence intensity”, `2'F-ANA at 1 3 5 6 8 9 11 12 13` is recorded as 90.9 a.u.
`2'F-ANA at 1 3 6 7 11 12 14`: “mean fluorescence intensity” 102 a.u.
For `2'F-ANA at 2 6 8 9 11 12 13`, “mean fluorescence intensity” read 433 a.u.
`2'F-ANA at 3 4 5 6 8 15` — result for “mean fluorescence intensity”: 97.3 a.u.
`2'F-ANA at 1 4 5 7 9 11 13 14 15`: “mean fluorescence intensity” 47.2 a.u.
Under “mean fluorescence intensity”, `2'F-ANA at 3 5 6 7 8 10 11 12` is recorded as 62.1 a.u.
`2'F-ANA at 1 2 7 8 9 10 12 15` — result for “mean fluorescence intensity”: 72.9 a.u.
For `2'F-ANA at 1 3 4 5 8 9`, “mean fluorescence intensity” read 65.5 a.u.
For `2'F-ANA at 2 5 6 7 8 9 10 11 13 15`, “mean fluorescence intensity” read 52.2 a.u.
Under “mean fluorescence intensity”, `2'F-ANA at 3 4 7 8 9 11 13` is recorded as 605 a.u.
`2'F-ANA at 1 5 6 7 8 10 13`: “mean fluorescence intensity” 45.3 a.u.
For `2'F-ANA at 3 6 8 10 11 13 15`, “mean fluorescence intensity” read 377 a.u.
For `2'F-ANA at 1 4 5 6 8 11 12 13 15`, “mean fluorescence intensity” read 67.8 a.u.
Under “mean fluorescence intensity”, `2'F-ANA at 1 3 4 6 8 9 10 11 12 13` is recorded as 64 a.u.
Under “mean fluorescence intensity”, `2'F-ANA at 1 2 5 8 10 11 12 13 15` is recorded as 103 a.u.
`2'F-ANA at 1 2 4 6 7 8 9 11` — result for “mean fluorescence intensity”: 101 a.u.
For `2'F-ANA at 7 9 10 12 13 15`, “mean fluorescence intensity” read 198 a.u.
For `2'F-ANA at 2 6 8 9 11 13 15`, “mean fluorescence intensity” read 272 a.u.
Under “mean fluorescence intensity”, `2'F-ANA at 1 2 3 7 8 9 11 12 13 14 15` is recorded as 88.7 a.u.
Under “mean fluorescence intensity”, `2'F-ANA at 2 3 7 10 12 15` is recorded as 489 a.u.
Under “mean fluorescence intensity”, `2'F-ANA at 2 3 5 8 10 13 14 15` is recorded as 49.6 a.u.
For `2'F-ANA at 2 3 4 6 9 12 13 14`, “mean fluorescence intensity” read 222 a.u.
`2'F-ANA at 1 2 6 8 10 12 13` — result for “mean fluorescence intensity”: 68.9 a.u.

Repeated from above (sample 1):
`TTAGATATTAGTTTCGATTAGTGCTAG`: “fitted relative affinity” 4.39 z-score.
For `TCAAGAAAGTGAAATACCACTGTGCTA`, “fitted relative affinity” read -0.407 z-score.
For `GACGAACTGGGGACTGGAGAGGTGCTA`, “fitted relative affinity” read -0.735 z-score.
`CTTGTTCTTAGCTTGGGTCTGTGCTAG`: “fitted relative affinity” 0.309 z-score.
For `GGCGGTTTCGACACTGGGGACGTGCTA`, “fitted relative affinity” read 3.06 z-score.
`TTAGGCCTGGGTTTCGGTTAGTGCTAG`: “fitted relative affinity” 2.7 z-score.
Under “fitted relative affinity”, `TCATTCCTGAAATCTCTTACTGTGCTA` is recorded as 0.849 z-score.
